Published values gathered from unrelated publications.
Numbered parts are unrelated; each lists some results of a single study.
Sequence of UniProt O60674 (whole entry, looked up): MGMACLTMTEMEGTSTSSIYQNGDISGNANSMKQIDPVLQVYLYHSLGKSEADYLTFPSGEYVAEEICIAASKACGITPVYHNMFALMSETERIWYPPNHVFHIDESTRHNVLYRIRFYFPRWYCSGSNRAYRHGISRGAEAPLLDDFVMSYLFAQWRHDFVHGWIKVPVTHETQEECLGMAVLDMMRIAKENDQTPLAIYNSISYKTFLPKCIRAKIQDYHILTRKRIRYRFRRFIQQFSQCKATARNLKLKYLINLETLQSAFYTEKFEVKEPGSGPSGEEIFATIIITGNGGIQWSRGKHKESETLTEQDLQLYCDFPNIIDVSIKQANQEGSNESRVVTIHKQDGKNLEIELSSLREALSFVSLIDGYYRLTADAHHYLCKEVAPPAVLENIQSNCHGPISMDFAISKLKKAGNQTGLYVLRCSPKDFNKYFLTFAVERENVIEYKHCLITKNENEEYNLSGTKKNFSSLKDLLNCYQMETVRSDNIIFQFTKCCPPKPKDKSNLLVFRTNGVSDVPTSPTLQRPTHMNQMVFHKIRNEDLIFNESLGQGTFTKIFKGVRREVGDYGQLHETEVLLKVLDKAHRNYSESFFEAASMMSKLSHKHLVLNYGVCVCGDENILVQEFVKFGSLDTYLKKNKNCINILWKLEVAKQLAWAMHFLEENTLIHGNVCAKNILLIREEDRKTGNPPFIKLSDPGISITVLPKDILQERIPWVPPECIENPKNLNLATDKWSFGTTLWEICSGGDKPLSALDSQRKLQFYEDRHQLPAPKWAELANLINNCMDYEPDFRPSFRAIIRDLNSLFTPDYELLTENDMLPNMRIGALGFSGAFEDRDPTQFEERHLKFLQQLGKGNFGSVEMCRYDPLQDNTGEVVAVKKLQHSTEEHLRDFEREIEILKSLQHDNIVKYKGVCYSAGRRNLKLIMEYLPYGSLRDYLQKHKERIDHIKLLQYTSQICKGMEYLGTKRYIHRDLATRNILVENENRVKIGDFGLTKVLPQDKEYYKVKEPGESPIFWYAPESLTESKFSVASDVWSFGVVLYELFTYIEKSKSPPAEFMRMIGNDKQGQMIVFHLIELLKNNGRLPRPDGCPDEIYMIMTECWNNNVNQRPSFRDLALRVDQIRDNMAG
Sequence of UniProt Q9UF33 (whole entry, looked up): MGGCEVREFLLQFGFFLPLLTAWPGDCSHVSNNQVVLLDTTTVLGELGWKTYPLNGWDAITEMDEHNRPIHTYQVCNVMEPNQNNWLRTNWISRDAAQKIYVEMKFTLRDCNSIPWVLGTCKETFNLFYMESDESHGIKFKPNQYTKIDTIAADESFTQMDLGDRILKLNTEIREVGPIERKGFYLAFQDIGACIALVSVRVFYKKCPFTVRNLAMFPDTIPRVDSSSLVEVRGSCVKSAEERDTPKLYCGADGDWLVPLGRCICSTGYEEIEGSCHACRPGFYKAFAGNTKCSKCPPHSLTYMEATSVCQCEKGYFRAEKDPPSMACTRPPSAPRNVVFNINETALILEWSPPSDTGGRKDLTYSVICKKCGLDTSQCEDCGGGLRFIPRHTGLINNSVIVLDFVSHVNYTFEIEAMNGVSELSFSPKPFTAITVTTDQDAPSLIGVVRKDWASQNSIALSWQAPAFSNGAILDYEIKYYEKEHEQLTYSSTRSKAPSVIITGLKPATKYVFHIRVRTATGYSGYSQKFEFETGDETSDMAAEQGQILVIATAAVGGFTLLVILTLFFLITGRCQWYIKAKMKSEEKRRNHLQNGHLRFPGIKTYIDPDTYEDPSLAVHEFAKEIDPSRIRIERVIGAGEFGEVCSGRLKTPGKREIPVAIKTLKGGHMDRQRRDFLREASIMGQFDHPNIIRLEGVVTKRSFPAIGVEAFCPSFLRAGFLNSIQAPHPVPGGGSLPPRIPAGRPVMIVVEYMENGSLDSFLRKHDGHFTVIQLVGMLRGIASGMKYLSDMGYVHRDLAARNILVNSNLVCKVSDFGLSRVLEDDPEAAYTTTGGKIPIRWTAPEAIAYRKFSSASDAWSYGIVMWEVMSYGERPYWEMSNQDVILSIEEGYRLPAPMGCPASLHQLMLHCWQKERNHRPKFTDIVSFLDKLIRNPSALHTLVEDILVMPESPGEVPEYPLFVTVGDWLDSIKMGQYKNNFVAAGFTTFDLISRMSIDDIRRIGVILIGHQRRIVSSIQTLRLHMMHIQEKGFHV
Sequence of UniProt Q96SB4 (whole entry, looked up): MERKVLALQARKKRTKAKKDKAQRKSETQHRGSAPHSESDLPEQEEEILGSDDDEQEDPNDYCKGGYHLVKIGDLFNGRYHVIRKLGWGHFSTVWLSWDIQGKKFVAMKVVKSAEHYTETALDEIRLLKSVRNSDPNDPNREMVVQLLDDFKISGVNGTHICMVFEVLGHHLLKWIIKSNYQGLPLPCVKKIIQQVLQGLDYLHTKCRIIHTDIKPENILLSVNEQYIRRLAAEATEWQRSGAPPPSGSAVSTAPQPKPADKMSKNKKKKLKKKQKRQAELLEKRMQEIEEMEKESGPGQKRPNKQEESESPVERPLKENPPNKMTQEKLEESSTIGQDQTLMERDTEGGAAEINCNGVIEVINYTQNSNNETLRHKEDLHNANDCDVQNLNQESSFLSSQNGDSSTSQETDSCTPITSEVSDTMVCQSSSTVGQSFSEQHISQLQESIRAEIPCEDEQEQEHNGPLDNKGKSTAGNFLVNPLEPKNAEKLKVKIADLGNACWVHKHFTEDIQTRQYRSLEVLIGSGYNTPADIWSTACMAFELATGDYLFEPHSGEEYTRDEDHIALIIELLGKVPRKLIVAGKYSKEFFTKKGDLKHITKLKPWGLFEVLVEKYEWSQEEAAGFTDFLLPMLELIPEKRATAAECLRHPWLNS
Sequence of UniProt P37023 (whole entry, looked up): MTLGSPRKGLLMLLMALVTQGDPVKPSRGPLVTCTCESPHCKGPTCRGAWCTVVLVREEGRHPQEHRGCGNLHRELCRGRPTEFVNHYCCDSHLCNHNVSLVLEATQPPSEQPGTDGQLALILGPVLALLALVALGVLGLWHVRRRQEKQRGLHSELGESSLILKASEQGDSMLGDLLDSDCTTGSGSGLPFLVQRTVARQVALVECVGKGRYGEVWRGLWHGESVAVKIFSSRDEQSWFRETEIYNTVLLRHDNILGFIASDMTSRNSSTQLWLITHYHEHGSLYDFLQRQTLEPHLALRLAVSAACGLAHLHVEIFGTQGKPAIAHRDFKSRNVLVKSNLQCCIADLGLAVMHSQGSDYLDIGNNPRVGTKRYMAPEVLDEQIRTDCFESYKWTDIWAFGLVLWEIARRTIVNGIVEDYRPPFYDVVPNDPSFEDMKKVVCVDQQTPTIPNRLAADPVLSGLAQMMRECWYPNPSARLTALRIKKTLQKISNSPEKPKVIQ
Sequence of UniProt Q14680 (whole entry, looked up): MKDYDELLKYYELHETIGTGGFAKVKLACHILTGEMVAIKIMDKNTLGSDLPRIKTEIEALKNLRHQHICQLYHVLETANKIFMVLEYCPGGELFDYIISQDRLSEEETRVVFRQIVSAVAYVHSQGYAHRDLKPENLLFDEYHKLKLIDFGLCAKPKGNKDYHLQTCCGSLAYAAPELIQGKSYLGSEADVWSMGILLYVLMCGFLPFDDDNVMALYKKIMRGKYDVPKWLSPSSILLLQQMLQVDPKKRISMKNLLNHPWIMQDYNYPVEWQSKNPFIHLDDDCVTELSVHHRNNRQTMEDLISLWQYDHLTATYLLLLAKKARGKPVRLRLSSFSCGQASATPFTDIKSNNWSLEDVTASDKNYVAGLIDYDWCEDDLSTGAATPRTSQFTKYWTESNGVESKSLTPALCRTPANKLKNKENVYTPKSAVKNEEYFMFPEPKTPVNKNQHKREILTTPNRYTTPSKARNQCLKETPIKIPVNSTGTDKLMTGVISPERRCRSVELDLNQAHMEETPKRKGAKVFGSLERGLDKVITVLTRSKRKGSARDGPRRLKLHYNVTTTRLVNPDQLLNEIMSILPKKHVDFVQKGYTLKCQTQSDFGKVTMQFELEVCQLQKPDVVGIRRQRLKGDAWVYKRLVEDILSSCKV
Sequence of UniProt P07332 (whole entry, looked up): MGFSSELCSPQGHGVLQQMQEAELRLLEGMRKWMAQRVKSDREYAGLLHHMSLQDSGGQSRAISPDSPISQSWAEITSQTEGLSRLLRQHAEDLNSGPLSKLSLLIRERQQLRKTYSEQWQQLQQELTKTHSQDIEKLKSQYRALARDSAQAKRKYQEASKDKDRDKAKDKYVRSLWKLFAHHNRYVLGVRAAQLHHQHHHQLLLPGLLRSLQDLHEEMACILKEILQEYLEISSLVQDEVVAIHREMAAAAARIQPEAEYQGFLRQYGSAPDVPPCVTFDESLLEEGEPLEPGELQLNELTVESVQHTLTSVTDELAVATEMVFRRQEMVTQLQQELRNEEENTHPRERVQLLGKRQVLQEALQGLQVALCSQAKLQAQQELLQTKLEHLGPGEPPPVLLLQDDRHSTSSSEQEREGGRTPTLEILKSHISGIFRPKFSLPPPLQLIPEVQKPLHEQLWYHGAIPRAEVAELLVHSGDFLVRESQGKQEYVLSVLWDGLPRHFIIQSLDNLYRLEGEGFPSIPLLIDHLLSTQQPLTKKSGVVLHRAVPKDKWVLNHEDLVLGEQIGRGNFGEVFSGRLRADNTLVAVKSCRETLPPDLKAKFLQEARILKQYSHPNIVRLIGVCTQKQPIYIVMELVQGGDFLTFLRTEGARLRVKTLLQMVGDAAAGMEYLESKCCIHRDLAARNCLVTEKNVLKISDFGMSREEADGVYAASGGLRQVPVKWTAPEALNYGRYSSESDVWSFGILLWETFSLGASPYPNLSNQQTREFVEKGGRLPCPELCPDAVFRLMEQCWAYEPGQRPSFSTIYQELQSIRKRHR

Set 1
Target: RING finger protein unkempt homolog, zinc fingers 1-6, GST-SBP tag (UNK, Homo sapiens, UniProt Q9C0B0, residues 30-357)
Technique: RNA Bind-n-Seq
Molecule type: RNA
Sample: in vitro
Tested at: not given
Setting: RNA with constant flanks, human-mouse chimeric sites, ends assumed
Baseline: input RNA pool
Direction: higher = stronger binding
Target sequence (chain): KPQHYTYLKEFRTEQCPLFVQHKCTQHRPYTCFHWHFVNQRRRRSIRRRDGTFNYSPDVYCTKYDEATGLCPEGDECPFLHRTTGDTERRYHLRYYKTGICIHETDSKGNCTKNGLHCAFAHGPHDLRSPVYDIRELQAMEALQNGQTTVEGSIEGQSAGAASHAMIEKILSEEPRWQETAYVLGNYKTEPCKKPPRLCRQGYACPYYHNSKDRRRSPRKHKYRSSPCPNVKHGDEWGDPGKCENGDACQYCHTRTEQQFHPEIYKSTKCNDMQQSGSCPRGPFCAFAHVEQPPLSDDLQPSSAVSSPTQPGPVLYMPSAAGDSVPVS
Sequence | bound/input enrichment
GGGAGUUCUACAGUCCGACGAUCCAGUCCCCGUGUCCCAGUGCAGGACGAUGUGAACAAAAACUCAAAGCGGACCCUCUAUUGUAGUUCUUUUUUUAAAUAAUGUGCUAUUAUUGUUUGUCUUUUUUUUUAAAAGAAAAGAGACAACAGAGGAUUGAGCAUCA | 0.878 ratio
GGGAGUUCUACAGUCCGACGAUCCACUCGAGGGCUGCCGUCCGUUCUCACUCCCUGGGCUGCGGAAAGCCAGAAGAUUUUAUCUAGCUUAUACAAGGCUGCUGGUGUUCCCUCUUUUUUUCCACGAGGGUGUUUUUGGCUGCACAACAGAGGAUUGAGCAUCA | 0.323 ratio
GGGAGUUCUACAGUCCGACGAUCAAAGAGAAACUAAAGCAACUAAUAGAGAAGAGGAUUGGGCAAAGAGAUUUCAUAGAGAAACUAGGAUUUUAUUAGCAACAUGAGUUAUAUUCCAGAGCGUCUCAGAAACCCCAGCCAAACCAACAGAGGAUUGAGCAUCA | 5.13 ratio
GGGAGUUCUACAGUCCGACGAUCUGUAGUUUCUUGAUUUAUCAUUUUUCUCUUUUCUUUCAGAUCGUCAGGAAAAGCCUAAAGAUUAGGUUGUAAGAAAAACAGAAGCCAGCCAUGUUUCACCUGUGUUACAGGUAUUUCGUCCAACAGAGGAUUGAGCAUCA | 0.605 ratio
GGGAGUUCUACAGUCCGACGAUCCAGUCCCCGUGUCCCAGUGCAGGACGAUGUGAACAAAAACUCAAAGCGGACCCUCUAUUGUAGUUCUUGAUUCUCGAAAUGUGCUAUUAUUGUUUGUAAAAAAGGAAUUUUUUUUAAAGACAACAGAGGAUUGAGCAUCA | 0.225 ratio
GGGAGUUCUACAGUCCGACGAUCGACAGUGAAGAAGAAAUUAGAGAAGCAUUCCGUGUGUUUGAUAAGGAUGGCAAUGGCUAUAUUAGUGCUGCAGAACUUCGCCAUGUGAUGACAAACCUUGGCGAGAAGUUAACAGAUGAACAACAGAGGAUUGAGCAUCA | 0.676 ratio
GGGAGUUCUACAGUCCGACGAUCCUGAAAAACACAGAUAUCAAAGUUGUUGAUUUUGGAAGUGCAACGUAUGAUGAUGAACAUCACAGUACUUUGGUGUCUACCCGGCACUACAGAGCUCCCGAGGUCAUUUUGGCUUUAGGUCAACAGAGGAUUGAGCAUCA | 0.505 ratio
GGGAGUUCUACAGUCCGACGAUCGUGCCCUUCUCGCUGCUGCGGAGCCCGCCCAGCUGGGCAUUCCGGGACUGGUACCCUGCACACAGCCGCCUCUUCGAUCAAGCUUUCGGGCUGCCCCGGUUGCCCGAUGAGUGGUCGCAGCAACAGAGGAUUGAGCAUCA | 0.0596 ratio

Set 2
Structure (SMILES): C[S+]([O-])c1ccc(-c2nc(-c3ccncc3)c(-c3ccc(F)cc3)[nH]2)cc1 (stereo not drawn)
Read-out: enzyme activity
Action: inhibitor
Tested at: 0.5 µM
Baseline: control
target | remaining activity [%]
Ephrin type-A receptor 2 (EPHA2, Homo sapiens, UniProt P29317) | 94.8
Ephrin type-B receptor 3 (EPHB3, Homo sapiens, UniProt P54753) | 96.7
Activin receptor type-1-like (ACVRL1, Homo sapiens, UniProt P37023) | 97.7
Cyclin-dependent kinase 5, with p35 (CDK5, Homo sapiens, UniProt Q00535) | 97.3
SRSF protein kinase 1 (SRPK1, Homo sapiens, UniProt Q96SB4) | 99.5
Casein kinase I isoform delta (CSNK1D, Homo sapiens, UniProt P48730) | 13.9
Vascular endothelial growth factor receptor 1 (FLT1, Homo sapiens, UniProt P17948) | 95.2
Protein kinase C theta type (PRKCQ, Homo sapiens, UniProt Q04759) | 111
Serine/threonine-protein kinase PAK 6 (PAK6, Homo sapiens, UniProt Q9NQU5) | 76.7
Tyrosine-protein kinase Fes/Fps (FES, Homo sapiens, UniProt P07332) | 97.3
Tyrosine-protein kinase JAK2 (JAK2, Homo sapiens, UniProt O60674) | 99.5
Ephrin type-A receptor 6 (EPHA6, Homo sapiens, UniProt Q9UF33) | 57.2
Cyclin-dependent kinase 2, with cyclin E (CDK2, Homo sapiens, UniProt P24941) | 93.1
Maternal embryonic leucine zipper kinase (MELK, Homo sapiens, UniProt Q14680) | 102

Set 3
Cell line: normal-adjacent organoid sample E
Technique: CellTiter-Glo
Tested at: 0.1 µM
Setting: replicate mean
Baseline: DMSO
SMILES | viability [%]
Cc1c(NC(=O)c2cc(C(N)=O)nc3cc(F)ccc23)c(C(F)(F)F)nn1Cc1ccc(C(C)(C)C)cc1 | 108
CCCOc1ccc([C@@H]2[C@@H](C(=O)O)[C@H](c3ccc4c(c3)OCO4)CN2CC(=O)Nc2c(CC)cccc2CC)cc1 | 111
COc1ccc2cc(OCC3(C(=O)O)CN(C(=O)c4ccc(F)cc4)C3)ccc2c1 | 113
O=C(Nc1ccc(Oc2ccc(F)cc2)cc1)N1CCc2ncccc2[C@H]1c1ccc(F)cc1 | 134
Cc1nc(Cc2cccc(C(F)(F)F)c2)sc1-c1ccc(C(N)=O)nc1 | 91.7
O=C(Nc1ccc(-n2nc(-c3cccnc3)cc2C(F)(F)F)cn1)c1ccc(-c2ccccc2)c(F)c1 | 115
O=C(N[C@H]1CCCCC/C=C\C2C[C@@]2(C(=O)O)NC(=O)[C@@H]2C[C@@H](Oc3ccncc3)CN2C1=O)OC1CCCC1 (stereo partly drawn) | 114

Other studies, line by line
Compound | system | quantity | result
CCOC(=O)[C@@H]1CSCC(=O)N[C@H](CC)C(=O)N(C)[C@@H](C)C(=O)N[C@H](CC(C)C)C(=O)N2CCC[C@H]2C(=O)N(CC(C)C)CC(=O)N[C@H](CC(C)C)C(=O)N(C)[C@H](C)C(=O)N[C@@H](CC(C)C)C(=O)N1C | hydrocarbon/water | logD | 1.92
